Experimental data of several laboratories.
Protocols differ between the studies behind these lines. ± marks the error that the study gave.

Compound | test | system | setting | how to read | solubility
CC(C)=CCC[C@](C)(O)[C@H]1CC[C@]2(C)[C@@H]1[C@H](O)C[C@@H]1[C@@]3(C)CC[C@H](O)C(C)(C)[C@@H]3CC[C@]12C | – | Capmul MCM EP | 72 h, 25 °C | – | 10600 ± 1440 µg/mL
CC(C)C[C@H](NC(=O)[C@H](CC(C)C)NC(=O)[C@H](CCCNC(=N)N)NC(=O)[C@@H](N)CC(N)=O)C(=O)N[C@@H](CC(C)C)C(=O)N[C@H](C(=O)NCC(=O)O)[C@@H](C)O | – | – | – | – | ~1500 µM
Nc1ccn(CC2COP(=O)(OCCNC(=O)CCCCC3SCC4NC(=O)NC43)CO2)c(=O)n1 (mixture of isomers) | – | – | – | – | 56100 ± 1630 µg/mL
CSCC[C@H](NC(=O)[C@H](CCCCN)NC(=O)[C@H](CO)NC(=O)[C@H](CC(C)C)NC(=O)[C@H](Cc1c[nH]cn1)NC(=O)[C@H](CCCNC(=N)N)NC(=O)[C@H](CCC(=O)O)NC(=O)[C@H](CCC(=O)O)NC(=O)[C@@H]1CCCN1C(=O)[C@@H](NC(=O)[C@@H](NC(=O)[C@H](C)NC(=O)[C@H](C)NC(=O)[C@H](CC(=O)O)NC(=O)[C@@H](NC(=O)[C@H](CCC(=O)O)NC(=O)[C@@H](NC(=O)[C@@H](NC(=O)CN)C(C)C)C(C)C)C(C)C)C(C)C)[C@@H](C)OP(=O)(O)O)C(=O)N[C@@H](CCC(N)=O)C(=O)N[C@@H](CCC(N)=O)C(=O)N[C@@H](CC(N)=O)C(=O)NCC(=O)N[C@@H](Cc1ccc(O)cc1)C(=O)O | – | HEPES buffer with DTT | pH 6.9 | lower limit | ≥ 10000 µM
NS(=O)(=O)c1ccc(C(=O)N[C@@H]2OC[C@@H](O)[C@H](O)[C@H]2O)cc1 | – | water | – | – | 1%
C=C(c1cc(F)c(C(=O)O)c(F)c1)c1cc2c(cc1C)C(C)(C)CCC2(C)C | – | deionized water | 24 h, 20 °C | – | 58 ± 1 µM
O=C1CC[C@H](N2Cc3cc(-c4ccn5ncc(Cl)c5n4)ccc3C2=O)C(=O)N1 | – | DMSO | – | – | 20000 µM
Cc1cc2c(cc1C1(c3ncc(C(=O)O)cn3)CC1)C(C)(C)CCC2(C)C | – | deionized water | 24 h, 20 °C | – | 67 ± 1 µM
Cc1cc2c(c(=O)o1)C=C1CCC(C(C)CNCc3ccc(O)cc3)CC1O2 (centres unmarked) | – | water | – | – | ≤ 720 µM
NS(=O)(=O)c1ccc(C(=O)N[C@@H]2O[C@H](CO)[C@@H](O)[C@H]2O)cc1 | – | water | – | – | 2.5%
CC(C)(O)Cn1cc(-c2ccc3nc(OC(F)F)ccc3c2)c2c(N)ncnc21 | – | – | pH 6.5 | – | 82.2 µM
Cc1cccc(-c2cc(C#N)cc(Oc3c(C(F)(F)F)ccn(Cc4n[nH]c(=O)n4C)c3=O)c2)c1 | HPLC | aqueous buffer | pH 2.0 | – | 1.9 µg/mL
NS(=O)(=O)NCC(F)(F)c1ccccc1F | shake-flask | water | pH 1.2 | – | 7600 µg/mL
CCCC1OC2CC3C4CCC5=CC(=O)C=CC5(C)C4C(O)CC3(C)C2(C(=O)COC(=O)C(C)N)O1 (centres unmarked) | HPLC | water | 72 h, 25 °C | – | 0.33 g/100 g
NS(=O)(=O)c1ccc(C(=O)N[C@@H]2O[C@H](CO)[C@H](O)[C@H](O)[C@H]2O)cc1 | – | water | – | – | 2.5%
CCCCCCCCCCCCCCCCCCCCCC(=O)O[C@@H](C(=O)O[C@H]1C[C@@]2(O)[C@@H](OC(=O)c3ccccc3)[C@@H]3[C@]4(OC(C)=O)CO[C@@H]4C[C@H](O)[C@@]3(C)C(=O)[C@H](O)C(=C1C)C2(C)C)[C@@H](NC(=O)OC(C)(C)C)c1ccccc1 | – | BALB/c mouse plasma | 24 h, room temperature | – | 34.4 ± 0.6 µg/mL
O=c1nc(N2CCC(Oc3ccccc3F)CC2)sc2c([N+](=O)[O-])cc(C(F)(F)F)cc12 | – | water | 37 °C | – | 0.5 µg/mL
COc1ccc2ccc3c(c2c1)C=[N+]1C2CCCCC2[N+]2=Cc4cccc(OC)c4[O][Au-]21[O]3.F[P-](F)(F)(F)(F)F (centres unmarked) | – | PBS-DMF | pH 7.4 | – | 54.7 µM
CC(=Nc1ccccc1)c1c(C)cc(=O)n(O)c1O | – | – | pH 6.5 | – | ≥ 200 µM
CCCCCCCCCCCC(=O)O[C@@H](C(=O)O[C@H]1C[C@@]2(O)[C@@H](OC(=O)c3ccccc3)[C@@H]3[C@]4(OC(C)=O)CO[C@@H]4C[C@H](O)[C@@]3(C)C(=O)[C@H](O)C(=C1C)C2(C)C)[C@@H](NC(=O)OC(C)(C)C)c1ccccc1 | – | BALB/c mouse plasma | 24 h, room temperature | – | 377 ± 21.5 µg/mL
COc1ccc(-c2cc(C(F)(F)F)nc(S(=O)(=O)CCC(=O)Nc3ccc(C)cc3)n2)cc1 | – | aqueous buffer | 150 µM nominal | – | ~17 µM
O=C1c2ccc(S(=O)(=O)O)cc2C(=O)c2cc(S(=O)(=O)O)ccc21 | UV-vis spectroscopy | 1 M H2SO4 without hydrotrope | pH 0 | – | 830000 ± 30000 µM
O=C(N=P12CN3CN(CN(C3)C1)C2)c1cccc[c]1[Pd].O=C(N=P12CN3CN(CN(C3)C1)C2)c1cccc[c]1[Pd]([Br])[Br] | – | DMSO:water 1:99 | – | – | 400 µM

For quick reference, copied from above:
Compound | test | system | setting | how to read | solubility
CC(C)(O)Cn1cc(-c2ccc3nc(OC(F)F)ccc3c2)c2c(N)ncnc21 | – | – | pH 6.5 | – | 82.2 µM
Cc1cccc(-c2cc(C#N)cc(Oc3c(C(F)(F)F)ccn(Cc4n[nH]c(=O)n4C)c3=O)c2)c1 | HPLC | aqueous buffer | pH 2.0 | – | 1.9 µg/mL
NS(=O)(=O)NCC(F)(F)c1ccccc1F | shake-flask | water | pH 1.2 | – | 7600 µg/mL
